{"data": "Assay results collected from several papers", "B1": "coatomer subunit beta', human; sequence looked up; chain PLRLDIKRKLTARSDRVKSVDLHPTEPWMLASLYNGSVCVWNHETQTLVKTFEVCDLPVRAAKFVARKNWVVTGADDMQIRVFNYNTLERVHMFEAHSDYIRCIAVHPTQPFILTSSDDMLIKLWDWDKKWSCSQVFEGHTHYVMQIVINPKDNNQFASASLDRTIKVWQLGSSSPNFTLEGHEKGVNCIDYYSGGDKPYLISGADDRLVKIWDYQNKTCVQTLEGHAQNVSCASFHPELPIIITGSEDGTVRIWHSSTYRLESTLNYGMERVWCVASLRGSNNVALGYDEGSIIVKLGREEPAMSMDANGKIIWAKHSEVQQANLKAMGDAEIKDGERLPLAVKDMGSCEIYPQTIQHNPNGRFVVVCGDGEYIIYTAMALRNKSFGSAQEFAWAHDSSEYAIRESNSIVKIFKNFKEKKSFKPDFGAESIYGGFLLGVRSVNGLAFYDWDNTELIRRIEIQPKHIFWSDSGELVCIATEESFFILKYLSEKVLAAQETHEGVTEDGIEDAFEVLGEIQEIVKTGLWVGDCFIYTSSVNRLNYYVGGEIVTIAHLDRTMYLLGYIPKDNRLYLGDKELNIISYSLLVSVLEYQTAVMRRDFSMADKVLPTIPKEQRTRVAHFLEKQGFKQQALTVSTDPEHRFELALQLGELKIAYQLAVEAESEQKWKQLAELAISKCQFGLAQECLHHAQDYGGLLLLATASGNANMVNKLAEGAERDGKNNVAFMSYFLQGKVDACLELLIRTGRLPEAAFLARTYLPSQVSRVVKLWRENLSKVNQKAAESLADPTEYENLFPGLKEAFVVEEWVKETHADLWPAKQYPLVTPNEERNVMEEGKDFQPSRSTAQQELDGKPASPTPVIVASHTANKEEKSLLELEVDLDNLELEDIDTTDINLDEDILDD", "note": "Compare with care: the assays were run in different laboratories. Numbers after ± are the reported error."}
{"Molecule": "regorafenib N-β-glucuronide", "test system": "mouse plasma", "conditions": "75 ng/mL, 8 h, room temperature", "measurement": "short-term stability accuracy", "value": "107%"}
{"Molecule": "Teicoplanin", "assay": "item: stability", "test system": "human serum", "conditions": "2 days, room temperature, low QC", "measurement": "recovery", "value": "99.2%"}
{"Molecule": "FNA / CGLSGLGVA-NH2 ([18F]FNA-labelled, C-amide)", "assay": "ex vivo gamma counting", "test system": "peptide, healthy mouse, lung", "conditions": "60 min post injection", "measurement": "tissue uptake", "value": "0.38 %ID/g"}
{"Molecule": "Polymyxin B", "assay": "untargeted LC-MS metabolomics, item: orthophosphate", "test system": "Sprague-Dawley rat, right cerebral cortex", "conditions": "intracerebroventricular, 0.75 mg/kg, 1 h", "how to read": "baseline: NaCl control", "measurement": "log2 fold change", "value": -5.9}
{"Molecule": "CTOP", "assay": "RP-HPLC", "test system": "HALO Phenyl-hexyl column", "conditions": "25 µM, formic acid/methanol, 10 min gradient", "measurement": "retention time", "value": "8.22 min"}
{"Molecule": "B1 (coatomer subunit beta', human)", "target or system": "PP6C (human)", "assay": "co-immunoprecipitation, IP-MS", "test system": "CYB5R4 knockout cells", "conditions": "concentration not given", "how to read": "baseline: CYB5R4 knockout over parental", "measurement": "log2 fold change", "value": -1.37}
{"Molecule": "[177Lu]Lu-DOTA-TATE", "assay": "radio-HPLC", "test system": "mouse serum", "conditions": "2 h, 37 °C, 50 MBq/nmol", "measurement": "intact radiolabelled peptide", "value": "98.4 ± 0.5%"}
{"Molecule": "coproporphyrin I", "test system": "human, serum", "conditions": "oral, dose not given, 3 h, geometric mean, together with: ezetimibe plus rifampin", "measurement": "serum concentration", "value": "3.25 nM"}
{"Molecule": "human RNA helicase A", "target or system": "PP6C (human)", "assay": "co-immunoprecipitation, IP-MS", "test system": "CYB5R4 knockout cells", "conditions": "concentration not given", "how to read": "baseline: CYB5R4 knockout over parental", "measurement": "log2 fold change", "value": -0.86}
{"Molecule": "caspofungin", "test system": "adult ICU patients, mITT, serum", "conditions": "dose not given, day 30", "measurement": "alkaline phosphatase", "value": "202 U/L"}
{"note": "Some of these lines once more:"}
{"Molecule": "regorafenib N-β-glucuronide", "test system": "mouse plasma", "conditions": "75 ng/mL, 8 h, room temperature", "measurement": "short-term stability accuracy", "value": "107%"}
